Assay results of several laboratories.
Lines come from different studies, so protocols differ. Several values in a cell are separate wells, animals, samples, runs or records. ± gives the spread as reported.
UniProt Q9JL06, sequence (whole entry, looked up): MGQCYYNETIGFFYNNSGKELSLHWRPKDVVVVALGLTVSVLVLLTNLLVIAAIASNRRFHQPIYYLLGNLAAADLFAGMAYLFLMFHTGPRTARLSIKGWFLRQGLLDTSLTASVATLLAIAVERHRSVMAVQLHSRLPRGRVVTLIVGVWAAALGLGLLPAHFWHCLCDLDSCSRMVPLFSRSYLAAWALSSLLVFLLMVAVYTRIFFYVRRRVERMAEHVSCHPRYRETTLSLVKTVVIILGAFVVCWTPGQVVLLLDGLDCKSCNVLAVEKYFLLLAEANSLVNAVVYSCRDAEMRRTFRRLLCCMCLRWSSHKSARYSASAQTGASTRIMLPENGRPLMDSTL
UniProt O62140, sequence (whole entry, looked up): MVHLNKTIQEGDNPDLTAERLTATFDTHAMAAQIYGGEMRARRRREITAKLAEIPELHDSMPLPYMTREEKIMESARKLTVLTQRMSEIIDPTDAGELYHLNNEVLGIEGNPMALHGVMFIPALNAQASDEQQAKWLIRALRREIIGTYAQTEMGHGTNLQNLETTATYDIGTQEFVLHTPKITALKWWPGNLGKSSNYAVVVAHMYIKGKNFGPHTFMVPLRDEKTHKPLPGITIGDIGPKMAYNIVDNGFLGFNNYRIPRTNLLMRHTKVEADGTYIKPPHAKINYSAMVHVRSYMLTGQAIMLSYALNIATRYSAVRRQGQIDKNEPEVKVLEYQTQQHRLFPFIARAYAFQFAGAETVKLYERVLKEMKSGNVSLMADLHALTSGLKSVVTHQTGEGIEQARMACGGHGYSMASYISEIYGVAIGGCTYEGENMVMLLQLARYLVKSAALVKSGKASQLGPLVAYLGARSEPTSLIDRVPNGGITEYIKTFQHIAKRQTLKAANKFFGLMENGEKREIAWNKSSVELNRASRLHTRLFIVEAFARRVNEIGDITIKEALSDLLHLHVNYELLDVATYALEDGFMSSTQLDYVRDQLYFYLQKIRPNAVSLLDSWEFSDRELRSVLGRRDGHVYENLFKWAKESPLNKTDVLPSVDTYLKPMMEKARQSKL
UniProt Q06187, sequence (whole entry, looked up): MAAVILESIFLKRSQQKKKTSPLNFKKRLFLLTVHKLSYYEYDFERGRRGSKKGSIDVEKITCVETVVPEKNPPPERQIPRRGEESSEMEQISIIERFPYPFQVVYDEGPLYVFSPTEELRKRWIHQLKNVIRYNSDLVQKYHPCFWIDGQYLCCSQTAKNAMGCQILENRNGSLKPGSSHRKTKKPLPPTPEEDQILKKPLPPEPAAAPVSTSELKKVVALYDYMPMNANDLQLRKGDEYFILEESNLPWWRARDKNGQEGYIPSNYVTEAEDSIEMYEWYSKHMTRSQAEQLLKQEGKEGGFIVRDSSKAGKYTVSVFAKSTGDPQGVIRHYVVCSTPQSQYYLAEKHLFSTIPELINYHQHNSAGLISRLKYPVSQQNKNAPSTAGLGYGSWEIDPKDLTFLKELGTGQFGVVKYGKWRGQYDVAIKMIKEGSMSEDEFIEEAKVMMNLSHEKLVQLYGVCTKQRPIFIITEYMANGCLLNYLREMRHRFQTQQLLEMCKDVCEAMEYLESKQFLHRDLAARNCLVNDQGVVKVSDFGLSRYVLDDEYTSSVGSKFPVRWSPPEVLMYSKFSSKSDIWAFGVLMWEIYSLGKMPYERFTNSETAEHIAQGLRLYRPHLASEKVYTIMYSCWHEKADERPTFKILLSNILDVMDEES
UniProt P61823, sequence (whole entry, looked up): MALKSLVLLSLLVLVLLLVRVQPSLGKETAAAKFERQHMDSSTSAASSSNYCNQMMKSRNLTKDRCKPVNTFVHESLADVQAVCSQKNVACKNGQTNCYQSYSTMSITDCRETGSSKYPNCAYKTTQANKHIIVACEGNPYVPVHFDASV
UniProt P34995, sequence (whole entry, unmodified, looked up): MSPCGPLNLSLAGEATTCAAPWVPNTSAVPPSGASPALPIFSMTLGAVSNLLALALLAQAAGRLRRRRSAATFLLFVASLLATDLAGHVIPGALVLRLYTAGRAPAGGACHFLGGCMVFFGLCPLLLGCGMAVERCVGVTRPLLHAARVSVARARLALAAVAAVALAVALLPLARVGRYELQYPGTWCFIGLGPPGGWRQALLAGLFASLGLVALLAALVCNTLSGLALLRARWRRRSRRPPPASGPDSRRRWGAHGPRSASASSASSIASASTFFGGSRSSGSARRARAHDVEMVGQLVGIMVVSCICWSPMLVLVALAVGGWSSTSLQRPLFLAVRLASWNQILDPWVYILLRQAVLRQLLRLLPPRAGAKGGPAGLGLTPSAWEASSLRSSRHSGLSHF
UniProt P51575, sequence (whole entry, unmodified, looked up): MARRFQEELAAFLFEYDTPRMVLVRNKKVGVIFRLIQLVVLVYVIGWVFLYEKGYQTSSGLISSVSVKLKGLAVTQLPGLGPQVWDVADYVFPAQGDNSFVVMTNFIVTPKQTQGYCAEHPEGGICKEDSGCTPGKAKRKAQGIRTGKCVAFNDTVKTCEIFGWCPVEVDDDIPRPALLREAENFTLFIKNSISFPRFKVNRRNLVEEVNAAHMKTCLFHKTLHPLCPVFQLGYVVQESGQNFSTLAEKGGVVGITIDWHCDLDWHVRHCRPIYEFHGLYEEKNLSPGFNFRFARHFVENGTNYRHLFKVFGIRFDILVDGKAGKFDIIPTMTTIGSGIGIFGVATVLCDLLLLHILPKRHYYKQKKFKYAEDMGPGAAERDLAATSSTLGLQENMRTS
UniProt Q8N884, sequence (whole entry, looked up): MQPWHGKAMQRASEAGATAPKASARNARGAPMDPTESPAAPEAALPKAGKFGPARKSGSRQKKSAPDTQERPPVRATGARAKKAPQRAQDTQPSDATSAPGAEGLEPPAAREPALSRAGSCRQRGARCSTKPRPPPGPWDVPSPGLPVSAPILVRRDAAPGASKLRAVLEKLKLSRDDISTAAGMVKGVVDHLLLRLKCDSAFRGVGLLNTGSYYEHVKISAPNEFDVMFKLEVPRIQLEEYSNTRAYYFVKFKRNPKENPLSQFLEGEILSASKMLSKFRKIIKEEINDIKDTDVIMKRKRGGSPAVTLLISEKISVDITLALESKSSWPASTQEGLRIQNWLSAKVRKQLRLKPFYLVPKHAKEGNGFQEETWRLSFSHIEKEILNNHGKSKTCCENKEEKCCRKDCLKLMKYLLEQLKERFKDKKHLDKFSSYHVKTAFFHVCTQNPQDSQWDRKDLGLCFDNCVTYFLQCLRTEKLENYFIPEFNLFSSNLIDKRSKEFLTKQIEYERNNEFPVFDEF
UniProt O00444, sequence (whole entry, looked up): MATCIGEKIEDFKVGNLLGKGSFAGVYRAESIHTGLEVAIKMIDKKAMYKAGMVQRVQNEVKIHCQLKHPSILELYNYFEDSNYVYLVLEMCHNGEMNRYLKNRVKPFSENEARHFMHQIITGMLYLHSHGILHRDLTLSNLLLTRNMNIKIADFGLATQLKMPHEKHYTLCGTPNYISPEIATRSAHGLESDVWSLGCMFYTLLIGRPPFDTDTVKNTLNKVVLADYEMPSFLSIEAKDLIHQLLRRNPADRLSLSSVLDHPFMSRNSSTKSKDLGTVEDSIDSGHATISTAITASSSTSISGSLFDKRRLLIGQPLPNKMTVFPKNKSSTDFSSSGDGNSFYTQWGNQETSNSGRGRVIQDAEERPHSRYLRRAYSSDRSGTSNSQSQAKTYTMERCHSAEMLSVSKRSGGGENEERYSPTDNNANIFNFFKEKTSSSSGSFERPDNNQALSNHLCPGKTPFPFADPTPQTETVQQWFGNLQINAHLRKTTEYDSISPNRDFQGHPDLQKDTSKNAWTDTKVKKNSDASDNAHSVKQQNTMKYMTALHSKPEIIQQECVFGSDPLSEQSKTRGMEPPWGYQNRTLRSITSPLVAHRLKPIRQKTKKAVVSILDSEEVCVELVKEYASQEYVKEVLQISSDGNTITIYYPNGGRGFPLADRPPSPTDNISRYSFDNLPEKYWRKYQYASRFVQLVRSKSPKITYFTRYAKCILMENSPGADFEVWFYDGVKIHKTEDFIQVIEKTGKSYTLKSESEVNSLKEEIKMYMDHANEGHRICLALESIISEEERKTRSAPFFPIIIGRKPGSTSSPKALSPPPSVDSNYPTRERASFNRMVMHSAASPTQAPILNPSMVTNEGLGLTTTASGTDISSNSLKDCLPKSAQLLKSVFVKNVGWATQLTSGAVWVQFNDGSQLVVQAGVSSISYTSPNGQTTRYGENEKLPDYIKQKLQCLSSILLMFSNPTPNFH
UniProt P18825, sequence (whole entry, looked up): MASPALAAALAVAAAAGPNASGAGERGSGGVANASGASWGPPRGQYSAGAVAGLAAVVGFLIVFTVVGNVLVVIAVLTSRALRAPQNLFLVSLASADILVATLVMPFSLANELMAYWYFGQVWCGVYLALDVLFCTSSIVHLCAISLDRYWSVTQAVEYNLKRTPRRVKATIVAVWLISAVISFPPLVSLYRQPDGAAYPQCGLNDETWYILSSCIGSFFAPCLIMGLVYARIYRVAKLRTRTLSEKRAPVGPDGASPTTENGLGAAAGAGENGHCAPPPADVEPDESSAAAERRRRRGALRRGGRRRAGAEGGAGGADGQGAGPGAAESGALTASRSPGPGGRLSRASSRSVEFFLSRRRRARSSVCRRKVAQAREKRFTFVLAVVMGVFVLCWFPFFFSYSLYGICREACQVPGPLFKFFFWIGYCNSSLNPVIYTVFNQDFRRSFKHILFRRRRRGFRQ
UniProt Q7TS48, sequence (whole entry, looked up): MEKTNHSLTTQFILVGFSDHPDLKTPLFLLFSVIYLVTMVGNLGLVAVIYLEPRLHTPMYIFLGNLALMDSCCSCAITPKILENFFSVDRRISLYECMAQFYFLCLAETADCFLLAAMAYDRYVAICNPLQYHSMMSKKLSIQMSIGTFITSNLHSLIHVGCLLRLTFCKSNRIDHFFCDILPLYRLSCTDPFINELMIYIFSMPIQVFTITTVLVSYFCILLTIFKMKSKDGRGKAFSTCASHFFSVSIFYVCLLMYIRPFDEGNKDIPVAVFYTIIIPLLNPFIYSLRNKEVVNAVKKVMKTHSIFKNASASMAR

COc1cc(Nc2ncc3c(n2)-c2ccc(Cl)cc2C(c2c(F)cccc2OC)=NC3)ccc1C(=O)O  EC50 (TEC (Homo sapiens, UniProt P42680); binding, kinobead competition; MV4-11 cell lysate): 18.6 µM
O=C(Nc1ccc([N+](=O)[O-])cc1Cl)c1cc(Cl)ccc1O  EC50 (Anoctamin-1 (Ano1, Mus musculus, UniProt Q8BHY3, F601A); chloride current, whole-cell patch clamp; HEK-293T TMEM16F knockout): 7.19 ± 0.66 µM
CC[C@H](C)[C@H](NC(=O)[C@H](Cc1ccc(OP(=O)(O)O)cc1)NC(=O)[C@H](CC(N)=O)NC(=O)[C@H](CC(C)C)NC(=O)[C@@H](N)CO)C(=O)N[C@@H](CC(=O)O)C(=O)N[C@@H](CC(C)C)C(=O)N[C@@H](CC(=O)O)C(=O)N[C@@H](CC(C)C)C(=O)N[C@H](C(=O)N[C@@H](CCCCN)C(=O)O)C(C)C  EC50 (PTPN11 (Homo sapiens, UniProt Q06124); phosphatase activity, activator; pH 7.0, added: DiFMUP substrate): 3.9 ± 0.3 µM
Cc1nn(-c2nc3c(F)cc(F)cc3s2)c(O)c1C(c1ccccc1C(=O)O)c1c(C)nn(-c2nc3c(F)cc(F)cc3s2)c1O  EC50 (Cyclic GMP-AMP synthase, catalytic domain; with DNA (CGAS, Homo sapiens, UniProt Q8N884); cGAS phase separation, inhibitor): 1.19 µM
O=C(O)c1cc(Cl)ccc1S(=O)(=O)NCCCCN1C(=O)c2cccc3cccc(c23)C1=O  EC50 (Lysophosphatidic acid receptor 2 (Mus musculus, UniProt Q9JL06); agonist, TGFα shedding; transfected HEK293 cells): ~0.025 µM and 0.025 µM
CC(C)(C)C=C(C#N)C(=O)N1CCC[C@@H](n2nc(-c3ccc(Oc4ccccc4)cc3)c3c(N)ncnc32)C1  EC50 (BTK (Homo sapiens, UniProt Q06187); target occupancy, PP-BODIPY competition labelling; Ramos; 1 h): 0.0202 ± 0.005 µM
Nc1ncnc2c1ncn2[C@@H]1O[C@H](COP(=O)(O)OP(=O)(O)OP(=O)(O)O)[C@@H](O)[C@H]1O  EC50 (P2X purinoceptor 1 (P2RX1, Homo sapiens, UniProt P51575, K136E/K138D/K140L/R139M); ion current, agonist, two-electrode voltage clamp; 4): 2.68 µM
CC(=O)OC[C@H]1O[C@@H]([S-])[C@H](OC(C)=O)[C@@H](OC(C)=O)[C@@H]1OC(C)=O.CCP(CC)CC.[Au+]  EC50 (Toxoplasma gondii; parasite growth, luciferase reporter; HFF, tachyzoite; 72 h): 2.75 µM
CCn1c(-c2nc3ccc(C(=O)N4CCCC(N)C4)cc3n2C)cc2ccccc21 (centres unmarked)  EC50 (ADRA2C (Homo sapiens, UniProt P18825); agonist, TR-FRET): > 31.6 µM
COc1ccc(S(=O)(=O)n2nc(NCc3ccc(Cl)cc3)nc2N)cc1  EC50 (Lysophospholipase-like protein 1 (Mus musculus, UniProt Q3UFF7); enzyme activity, activator, gel-based ABPP): > 20 µM
CCCCC[C@H](O)/C=C/[C@H]1[C@H](O)CC(=O)[C@@H]1C/C=C\CCCC(=O)O  EC50 (PTGER1 (Homo sapiens, UniProt P34995, S42A); IP1 accumulation, agonist; AD293; EP1 S42A mutant): 0.0122 µM
C[C@H](CCC(C)(C)O)[C@H]1CC[C@H]2[C@@H]3CC=C4C[C@@](C)(O)CC[C@]4(C)[C@H]3CC[C@]12C  EC50 (Glutamate NMDA receptor; GRIN1/GRIN2A (Homo sapiens, UniProt Q05586+Q12879); ion current, positive modulator, automated patch clamp; HEK293 (tetracycline-inducible); no 24(S)-HC, added: glutamate 1 µM and glycine): 0.103 µM
CCc1cnc(C)c(C)n1  EC50 (Olfactory receptor 5K16 (Or5k16, Mus musculus, UniProt Q7TS48); cAMP, agonist; HEK293 transfected with Or5k16): > 1500 µM
Cn1cc(-c2ccc(-c3cncc(Cl)c3N3CCC4(CCNC4=O)CC3)cc2)cn1  log2 fold change (COLO 205; gene expression, microarray, item: PLK2 mRNA; concentration not given, 6 h; reference: untreated cells): 2.11
Nc1ncnc2c1ncn2[C@@H]1O[C@H](COP(=O)(O)OP(=O)(O)OP(=O)(O)O)[C@@H](O)[C@H]1O  EC50 (Acyl-coenzyme A oxidase acox-1.1 (acox-1.1, Caenorhabditis elegans, UniProt O62140); enzyme activity, activator, enzyme-coupled kinetic): 88.8 ± 8.6 µM
CCc1c(C)nc(-c2ccc(Cl)s2)nc1Nc1ccc(CC(=O)O)cc1  EC50 (PDE4B (Homo sapiens, UniProt Q07343); reporter gene, dual luciferase): 4.27 ± 0.845 µM
C[n+]1cc2c3c(ccc2c2ccc4cc5c(cc4c21)OCO5)OCO3  EC90 (Toxoplasma gondii; parasite growth; HFF, bradyzoite, glutamine-induced): 1.08 µM
COc1cc(Nc2ncc3c(n2)-c2ccc(Cl)cc2C(c2c(F)cccc2OC)=NC3)ccc1C(=O)NCCOCCOCCNC(=O)COc1cccc2c1C(=O)N(C1CCC(=O)NC1=O)C2=O (centres unmarked)  EC50 (PLK4 (Homo sapiens, UniProt O00444); binding, kinobead competition; MV4-11 cell lysate): > 30 µM
CC(C)C[C@H](NC(=O)C[C@H](O)[C@H](CC(C)C)NC(=O)[C@H](Cc1c[nH]cn1)NC(=O)CNC(=O)[C@@H](NC(=O)[C@H](C)NC(=O)[C@H](Cc1c[nH]c2ccccc12)NC(=O)[C@H](CCC(N)=O)NC(=O)[C@@H](Cc1ccccc1)NC(=O)COCCOCCNC(=O)CCC(C(=O)O)N1CCN(CC(=O)O)CCN(CC(=O)O)CCN(CC(=O)O)CC1)C(C)C)C(N)=O (some centres unmarked) [lutetium-177 labelled]  tissue uptake (female BALB/c nu/nu mice, heart; intravenous, 100 pmol, 4 h, added: PA 300 µg): 0.06 ± 0.02 %ID/g
Nc1ccn([C@@H]2O[C@H](COP(=O)(O)OP(=O)(O)O)[C@@H](O)[C@H]2O)c(=O)n1  Kd (RNASE1 (Bos taurus, UniProt P61823); surface sampling native MS; charge state 7+): 3.2 ± 0.2 µM
